Results collected from several papers.
Protocols differ between the studies behind these lines. Numbers after ± are the reported error.

Under “relative oral bioavailability”, `Cc1ccccc1CN1CCC(O)(c2ccc(Cl)c(C(F)(F)F)c2)CC1` is recorded as less than 10% (LC-MS; BALB/c mouse, serum; oral, 50 mg/kg; relative to: intraperitoneal route).
With `CCCCCCCC/C=C\CCCCCCCCOP(O)(O)=S.N` the Vz/F was 1.73 L/kg (mouse, female, nonirradiated; subcutaneous, single dose).
With `CN(C)C(CNC(=O)Nc1cc(C(F)(F)F)ccc1N1CCOCC1)c1ccncc1` (centres unmarked) the serum chloride was 111 mmol/L (mouse, serum; intraperitoneal, 240 mg/kg single dose).
The tissue uptake of `N=C(N)NCc1ccc(C(=O)NCCCC[C@H](NC(=O)CCCCCCC(=O)NCCCC[C@H](NC(=O)N[C@@H](CCC(=O)O)C(=O)O)C(=O)O)C(=O)O)cc1[211At]` is reported as 0.44 ± 0.1 %ID/g (SCID mouse, PC-3 xenografts, bone; 1 h).
For `CC[C@H](C)C(=O)N1CCC(NC(=O)Nc2ccc(OC(F)(F)F)c(F)c2)CC1`, “subjects with feeling hot TEAE” read 16.7% (healthy volunteers; oral, 8 mg single dose).
With `[2H]C([2H])([2H])C([2H])([2H])C([2H])([2H])OC(C(=O)OC1CCNCC1)(c1ccccc1)c1ccccc1` the adverse events was 14.3% (item: creatine phosphokinase increased; healthy Japanese male; oral, 12 mg once daily, 16 days).
`C/C=C/C=C/C/C=C/CCCCCCCc1cccc(O)c1O` gave a tissue concentration of 10900 ± 1340 ng/g (female Kunming mice tumour-bearing, lungs; intravenous, 10 mg/kg, 2 h).
`CC(C)[C@H](NC(=O)CNC(=O)[C@H](CCC(N)=O)NC(=O)[C@H](C)N)C(=O)O` — result for “subjects with adverse events”: 66.7% (at least one event; human; 90 mg/kg/h, continuous infusion).

A few entries again:
`C/C=C/C=C/C/C=C/CCCCCCCc1cccc(O)c1O` gave a tissue concentration of 10900 ± 1340 ng/g (female Kunming mice tumour-bearing, lungs; intravenous, 10 mg/kg, 2 h).
